Assay results gathered from unrelated publications.
Each numbered part is a random draw from the data of one study; scales do not carry over between parts.

Study 1
Target: Sal-like protein 4, full length isoform A (SALL4, Homo sapiens, UniProt Q9UJQ4, residues 1-1053)
Chain of UniProt Q9UJQ4 (whole entry, looked up): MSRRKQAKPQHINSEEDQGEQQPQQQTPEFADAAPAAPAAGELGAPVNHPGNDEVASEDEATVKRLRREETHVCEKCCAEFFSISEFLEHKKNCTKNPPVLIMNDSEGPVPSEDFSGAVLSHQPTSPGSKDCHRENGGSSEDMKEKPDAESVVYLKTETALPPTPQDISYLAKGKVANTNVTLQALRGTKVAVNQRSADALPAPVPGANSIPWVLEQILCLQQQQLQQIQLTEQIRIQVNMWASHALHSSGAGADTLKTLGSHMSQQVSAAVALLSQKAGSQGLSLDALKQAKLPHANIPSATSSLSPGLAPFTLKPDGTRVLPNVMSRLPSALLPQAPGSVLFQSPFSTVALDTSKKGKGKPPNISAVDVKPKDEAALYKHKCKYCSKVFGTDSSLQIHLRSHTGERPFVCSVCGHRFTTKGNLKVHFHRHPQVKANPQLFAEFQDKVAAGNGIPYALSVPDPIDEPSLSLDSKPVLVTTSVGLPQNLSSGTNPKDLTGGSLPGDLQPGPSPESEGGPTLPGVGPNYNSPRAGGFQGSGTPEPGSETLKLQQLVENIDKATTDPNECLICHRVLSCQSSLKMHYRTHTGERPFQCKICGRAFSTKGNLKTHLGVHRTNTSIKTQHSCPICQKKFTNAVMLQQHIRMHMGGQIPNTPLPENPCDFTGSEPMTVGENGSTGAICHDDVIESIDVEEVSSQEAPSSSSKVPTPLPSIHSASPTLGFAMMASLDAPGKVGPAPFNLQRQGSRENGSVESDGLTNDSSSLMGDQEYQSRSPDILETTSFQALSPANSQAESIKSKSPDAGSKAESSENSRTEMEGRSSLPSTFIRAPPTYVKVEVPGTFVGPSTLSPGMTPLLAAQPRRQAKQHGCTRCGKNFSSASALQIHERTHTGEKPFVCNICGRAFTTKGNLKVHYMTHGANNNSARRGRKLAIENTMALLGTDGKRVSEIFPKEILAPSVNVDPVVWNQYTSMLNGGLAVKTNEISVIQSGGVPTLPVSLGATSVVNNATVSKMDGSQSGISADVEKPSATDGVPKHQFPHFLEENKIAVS
Technique: universal PBM
Form: double-stranded DNA, one strand shown
Matrix: in vitro
Tested at: 600 nM
Notes: 8-mer, flanks averaged, mean of replicates
Reading: higher = stronger binding
`CCTGACAG` has an E-score of -0.0724.
`ATCTAAGA` has an E-score of 0.143.
`ATTGGGAC` has an E-score of 0.0169.
For `AATTCGAC`, the E-score was -0.0411.
For `AGCTTGCG`, the E-score was -0.167.
For `ACGGCGCA`, the E-score was -0.271.
With `CGCAGACA` the E-score was -0.131.
For `GGTCTGAC`, the E-score was -0.22.
For `AAGGAGTC`, the E-score was -0.172.
With `ACGAGATG` the E-score was -0.0974.
`CAGTTAGG` has an E-score of -0.0703.
`CCACGAGG` gave an E-score of -0.207.
With `AAAGACTA` the E-score was 0.0685.
The E-score of `CGGCCGGC` is reported as -0.398.
`GAGCTCCA` gave an E-score of -0.29.
The E-score of `GGCCGCCC` is reported as -0.436.
The E-score of `CTGGGCAA` is reported as -0.0834.
The E-score of `CGTCACGA` is reported as -0.0209.
`GGCTGAGA` gave an E-score of -0.127.
The E-score of `CGAAGCCC` is reported as -0.248.
`TCAGCTAA` gave an E-score of 0.173.
For `AAGATGTG`, the E-score was 0.144.
`AGGATGAA` gave an E-score of 0.0716.
`CGGTGCCA` gave an E-score of -0.37.
With `AGCGCACG` the E-score was -0.296.

Study 2
Target: Hepatocyte nuclear factor 3-beta, forkhead domain (FOXA2, Homo sapiens, UniProt Q9Y261, residues 142-269)
Technique: protein-binding microarray
Form: double-stranded DNA, one strand shown
Matrix: in vitro
Tested at: not given
Notes: k-mer, scored over probes, only values ≥0.25
Reading: higher = stronger binding
Residues (chain): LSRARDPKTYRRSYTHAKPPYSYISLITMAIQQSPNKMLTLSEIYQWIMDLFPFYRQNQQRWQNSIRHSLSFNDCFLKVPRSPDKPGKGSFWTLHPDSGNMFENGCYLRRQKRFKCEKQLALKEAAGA
For `ACGATAAT`, the E-score was 0.286.
For `ACTGCATA`, the E-score was 0.256.
The E-score of `ATTCACAA` is reported as 0.28.
For `TATTCCAA`, the E-score was 0.264.
`AACAACCA` has an E-score of 0.28.
`ATTGAGTA` gave an E-score of 0.342.
With `AACATCAA` the E-score was 0.351.
`GTTAAACA` gave an E-score of 0.357.
The E-score of `ACAGTATA` is reported as 0.343.
`AAACCCAT` has an E-score of 0.314.
`ATAATATG` gave an E-score of 0.321.
With `CAACTAAA` the E-score was 0.277.
The E-score of `CAAATATG` is reported as 0.351.
`ACTAATTA` has an E-score of 0.311.
`AAACAACT` gave an E-score of 0.304.
`TATAACAA` has an E-score of 0.363.
`ATTACATG` gave an E-score of 0.26.
For `CATATAGC`, the E-score was 0.281.
The E-score of `GTCATATA` is reported as 0.288.
`ATGTTAAC` gave an E-score of 0.356.
`ATGTGGAA` gave an E-score of 0.305.
With `ATAGTAGA` the E-score was 0.302.
`ATAGAACA` has an E-score of 0.265.
The E-score of `ATATGATA` is reported as 0.357.
With `TAGAAATA` the E-score was 0.276.

Study 3
Target: RING finger protein unkempt homolog, zinc fingers 1-6, SBP tag (UNK, Homo sapiens, UniProt Q9C0B0, residues 30-357)
Chain of UniProt Q9C0B0 (30-357, looked up): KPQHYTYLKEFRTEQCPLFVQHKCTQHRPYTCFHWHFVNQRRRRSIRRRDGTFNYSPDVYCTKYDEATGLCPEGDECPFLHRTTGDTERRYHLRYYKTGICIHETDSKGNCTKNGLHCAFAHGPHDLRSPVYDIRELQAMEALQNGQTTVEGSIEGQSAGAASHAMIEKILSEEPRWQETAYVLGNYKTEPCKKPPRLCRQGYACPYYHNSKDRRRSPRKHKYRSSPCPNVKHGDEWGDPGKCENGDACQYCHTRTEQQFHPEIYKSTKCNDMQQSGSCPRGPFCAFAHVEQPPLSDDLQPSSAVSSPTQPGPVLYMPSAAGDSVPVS
Technique: RNA Bind-n-Seq
Form: RNA
Matrix: in vitro
Tested at: 100 nM
Notes: RNA with constant flanks, vertebrate orthologous sites, ends assumed
Baseline: input RNA pool
Reading: higher = stronger binding
`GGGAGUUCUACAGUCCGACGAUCGUGUUGUGUACAGGGCAUUCUCUGUACUAGUUUGUUGUGGUUAUAAAACAUUUAGCAAAACAGCCUACGUUUGUAUUUAUUUUCUGUUCCAUCCUUUGUGCCCCAUGUGUUUUUCUUUUACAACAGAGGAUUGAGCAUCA` has a bound/input enrichment of 0.869 ratio.
`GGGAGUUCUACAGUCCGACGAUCGUGUCUUGGUUUGGGGUAGAGGGGAGGGAGGGGCAGGACUGUGGAAUCUCUAGAGUGUAUUGGUAGAUAAGGGUGCACAGUUAGUUGUAAGUGGGCCUUUAUGUUAAAAACCUCGGGGGGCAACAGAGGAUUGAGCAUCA` gave a bound/input enrichment of 1.11 ratio.
With `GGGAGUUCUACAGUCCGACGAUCCUCUAUGGGCCUCGCAGAGUUGAAAUAAUAGAAGAGGACAGUGAACAGUAACCUUCAUUUUAGUAUUUAUGCUUAGGUGUGAAAUAAAUGUUACUCGUUGAUCAUUUCUAUAAUCCAGAGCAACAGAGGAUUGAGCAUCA` the bound/input enrichment was 0.531 ratio.
`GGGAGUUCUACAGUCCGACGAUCCAGCCAACUCCCUUAUCGGCCGGGCUGCUCACAUCGCCGUCCUCGACUCUGAGAUCUUCCUGGAGAAGUUCUUCCUUGUUGCAGGCCUCAAGUUCUUUCAGUAGAACUGCGACAGAUUCACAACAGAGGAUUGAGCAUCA` gave a bound/input enrichment of 0.424 ratio.
With `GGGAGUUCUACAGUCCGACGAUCGUUAGGUCAUGACCCUUAUAGGCUAGGUCAUGAUGCCUACAGGUUAGGGCAGGACCCUUAUAGAUUAGGCCAUGAUCCCUACAGACUAACUCCUGAUCCCUAUAGGAUGUCACCUAGACCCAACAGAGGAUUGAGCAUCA` the bound/input enrichment was 0.568 ratio.
`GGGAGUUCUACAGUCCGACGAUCUUGUCUGCCUCAUUCUAAAUUUACACAGUAGACCAUUUGUCAUCCAUGCUGUCCCACAAAUAGUUUUUUUGUUUACGAUUUAUGACAGGUUUAUGUUACUUCUAUUUGAAUUUCUAUAUUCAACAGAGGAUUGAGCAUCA` gave a bound/input enrichment of 2.06 ratio.
With `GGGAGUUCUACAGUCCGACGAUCUCCUUUCAUACUGUCCCCAGUCAGGGCCAAGGACUUCAGUUACUUGCUGAGGACCUGCAUUUAAAAUCUUUUUUUAAAAAAAUUAUUAUAUAGGAAAAGGUGUGACUAAAACACCAUCUCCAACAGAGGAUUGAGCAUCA` the bound/input enrichment was 0.572 ratio.
For `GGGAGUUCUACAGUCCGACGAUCCACUCAACUUGUUCUAACUUGUGACCCUUCAGCGUUGAGUCAGGCAUUAAUGCCAGGUACUAGAACUUUUUGUUUCUCUCUUACCACUGAGCAGAGAGAUCUUAGAAGCAGAAAUCCACGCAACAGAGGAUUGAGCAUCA`, the bound/input enrichment was 0.447 ratio.

Study 4
Target: RNA binding protein fox-1 homolog 2, RRM domain, GST-SBP tag (RBFOX2, Homo sapiens, UniProt O43251-10, residues 100-194)
Technique: RNA Bind-n-Seq
Form: RNA
Matrix: in vitro
Tested at: 365 nM
Notes: natural RNA segment, single round, ends assumed
Baseline: no-protein control
Reading: higher = stronger binding
Residues (chain): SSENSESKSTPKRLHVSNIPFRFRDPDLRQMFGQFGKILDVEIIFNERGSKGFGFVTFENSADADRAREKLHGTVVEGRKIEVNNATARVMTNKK
`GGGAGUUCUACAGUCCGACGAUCAGUAUUAAUAGUAGCUCAUUCUCUCUAAAAAUUUACUGCCCACUGAUAGGAUGUUUUGUUUCCUUGAUAAAACAAAUGUAAAUGAGGAAUUUUAUUUGAAUUGGAAUAUUUGGAAUUCUCGGGUGCCAA` — result for “RBNS enrichment (R)”: 0.733.
`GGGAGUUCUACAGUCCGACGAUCAAACAGAAGCUUGUACGUAUUCAUUAGAAUGCACUAUCGGGUACUCUGAAGUCAUUAACAUUGAAAUCUGCACCAGGAGGCAACAGGGGAAAAAAAAGUUUGAUCUUCUUUGGAAUUCUCGGGUGCCAA` — result for “RBNS enrichment (R)”: 0.342.
For `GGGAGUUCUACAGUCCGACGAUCUGUCGUUUUCAUAACUUGCUGAAUUUCAGGCAUUUUGUUCUACAUGAGGACUCAUAUAUUUAAGCCUUUUGUGUAAUAAGAAAGUAUAAAGUCACUUCCAGUGUUGGCUGUGGAAUUCUCGGGUGCCAA`, “RBNS enrichment (R)” read 0.603.
`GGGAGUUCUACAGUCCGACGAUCGAAGCCCUUUCUAGGAGGUUGUGUCGGCCCCAGCAGGGGCUCUCAGCUUCUCCCCAUCCAGAAACCCGAUGUGUGAGUCCCUCAUCACACACGCACACACACACACACACUGGAAUUCUCGGGUGCCAA` — result for “RBNS enrichment (R)”: 0.822.
Under “RBNS enrichment (R)”, `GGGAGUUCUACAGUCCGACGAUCGCUCCAGUAAUAUCUUGCCCGAAAAGUGGUCGUCUUCCAAGCAUGGUGUUCUGGGUCCCAGCCUUGUCUUAUCGCCUGUCCUGUCAGUGUCCAACCACACGGUGGCUUGGUGGAAUUCUCGGGUGCCAA` is recorded as 2.3.
For `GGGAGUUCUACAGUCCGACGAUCUACCGCCCUCUCAGUUCAACUUUGCUCACUCAGGUUUCCACUUGGAAGACAUCUCCACAAGUCAGAAGUUCAUGCUGGGUUUUGCUGGCAGAAGGACAUCCAAGCCUGCAUGGAAUUCUCGGGUGCCAA`, “RBNS enrichment (R)” read 0.963.
For `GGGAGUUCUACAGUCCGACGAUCAUAAAACAACCCUGCAGCAGGGGUCCGAAGGGCACAAGUGUGACCGCCUCUCUGUAGCUAAGCACAGUUAGGCUGGGUGAUUUGGAUCCCGACUCGCAUCUGGUAUUGUAUGGAAUUCUCGGGUGCCAA`, “RBNS enrichment (R)” read 0.513.
For `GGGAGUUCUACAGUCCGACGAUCGUGAGGAAAUGUUUGGGAGAGGACUUUCUAAGCUCUAUUUAGGUGUUAGAUCUAAUUACUUAUAGAUUCUGUAGUCUGGUGAAGGUGUGGGUGACGUGAUGAGAGGUUUGUGGAAUUCUCGGGUGCCAA`, “RBNS enrichment (R)” read 1.83.
